{"data": "Measured values gathered from unrelated publications", "note": "Each numbered part is a random draw from the data of one study; scales do not carry over between parts. Positions count from the first letter of the parent shown.", "chain of UniProt P61081 (whole entry, looked up)": "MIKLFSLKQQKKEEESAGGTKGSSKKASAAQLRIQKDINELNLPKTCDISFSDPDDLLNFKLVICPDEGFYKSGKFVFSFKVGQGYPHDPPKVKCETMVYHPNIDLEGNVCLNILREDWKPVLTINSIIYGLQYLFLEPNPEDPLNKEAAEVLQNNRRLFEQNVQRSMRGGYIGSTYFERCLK", "chain of UniProt P68036 (whole entry, looked up)": "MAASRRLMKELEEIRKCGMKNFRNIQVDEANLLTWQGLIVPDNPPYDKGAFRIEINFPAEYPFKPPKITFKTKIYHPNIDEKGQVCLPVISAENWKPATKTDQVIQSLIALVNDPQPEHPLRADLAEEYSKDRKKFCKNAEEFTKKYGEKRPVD", "chain of UniProt P63146 (whole entry, looked up)": "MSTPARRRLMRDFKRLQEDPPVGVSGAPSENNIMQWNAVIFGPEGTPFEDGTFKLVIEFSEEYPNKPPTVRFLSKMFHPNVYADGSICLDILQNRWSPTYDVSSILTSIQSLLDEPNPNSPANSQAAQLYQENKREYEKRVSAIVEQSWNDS", "chain of UniProt Q9H832 (whole entry, looked up)": "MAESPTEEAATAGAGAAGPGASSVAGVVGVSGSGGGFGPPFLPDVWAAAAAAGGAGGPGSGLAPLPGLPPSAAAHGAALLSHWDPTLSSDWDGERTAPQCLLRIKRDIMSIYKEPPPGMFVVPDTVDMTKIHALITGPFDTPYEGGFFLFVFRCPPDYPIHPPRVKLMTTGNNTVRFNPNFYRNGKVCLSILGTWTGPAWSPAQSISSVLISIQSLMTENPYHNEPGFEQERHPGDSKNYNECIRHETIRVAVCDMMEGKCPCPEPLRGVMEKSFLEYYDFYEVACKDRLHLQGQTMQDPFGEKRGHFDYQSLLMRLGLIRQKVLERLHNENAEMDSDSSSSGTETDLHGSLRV", "chain of UniProt Q9NPD8 (whole entry, looked up)": "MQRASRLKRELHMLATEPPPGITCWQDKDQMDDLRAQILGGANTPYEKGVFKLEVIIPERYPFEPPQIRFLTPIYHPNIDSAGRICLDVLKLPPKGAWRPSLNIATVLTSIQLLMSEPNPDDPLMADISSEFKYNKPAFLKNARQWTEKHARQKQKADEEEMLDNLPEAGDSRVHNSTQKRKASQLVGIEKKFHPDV", "chain of UniProt Q712K3 (whole entry, looked up)": "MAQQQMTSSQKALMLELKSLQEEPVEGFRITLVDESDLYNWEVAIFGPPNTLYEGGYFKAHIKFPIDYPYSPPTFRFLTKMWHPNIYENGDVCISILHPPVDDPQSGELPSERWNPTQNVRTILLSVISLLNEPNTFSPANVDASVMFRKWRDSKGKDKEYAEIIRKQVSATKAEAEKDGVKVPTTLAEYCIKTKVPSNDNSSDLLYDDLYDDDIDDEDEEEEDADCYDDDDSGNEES", "chain of UniProt Q969T4 (whole entry, looked up)": "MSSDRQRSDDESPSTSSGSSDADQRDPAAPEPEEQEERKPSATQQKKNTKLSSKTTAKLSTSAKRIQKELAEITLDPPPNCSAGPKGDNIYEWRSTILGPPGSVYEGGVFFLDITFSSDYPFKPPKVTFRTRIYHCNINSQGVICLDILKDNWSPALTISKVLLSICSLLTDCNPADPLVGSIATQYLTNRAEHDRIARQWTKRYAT", "chain of UniProt Q9Y385 (whole entry, looked up)": "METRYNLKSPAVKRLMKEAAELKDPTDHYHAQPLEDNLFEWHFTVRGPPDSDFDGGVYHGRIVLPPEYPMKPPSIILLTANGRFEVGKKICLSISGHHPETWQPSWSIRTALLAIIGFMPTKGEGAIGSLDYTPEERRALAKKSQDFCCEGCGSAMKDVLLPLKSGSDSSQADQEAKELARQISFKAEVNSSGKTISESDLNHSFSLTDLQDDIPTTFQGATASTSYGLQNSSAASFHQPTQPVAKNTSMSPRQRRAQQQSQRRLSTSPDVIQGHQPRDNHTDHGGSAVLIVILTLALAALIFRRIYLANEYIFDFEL", "chain of UniProt Q9C0C9 (whole entry, looked up)": "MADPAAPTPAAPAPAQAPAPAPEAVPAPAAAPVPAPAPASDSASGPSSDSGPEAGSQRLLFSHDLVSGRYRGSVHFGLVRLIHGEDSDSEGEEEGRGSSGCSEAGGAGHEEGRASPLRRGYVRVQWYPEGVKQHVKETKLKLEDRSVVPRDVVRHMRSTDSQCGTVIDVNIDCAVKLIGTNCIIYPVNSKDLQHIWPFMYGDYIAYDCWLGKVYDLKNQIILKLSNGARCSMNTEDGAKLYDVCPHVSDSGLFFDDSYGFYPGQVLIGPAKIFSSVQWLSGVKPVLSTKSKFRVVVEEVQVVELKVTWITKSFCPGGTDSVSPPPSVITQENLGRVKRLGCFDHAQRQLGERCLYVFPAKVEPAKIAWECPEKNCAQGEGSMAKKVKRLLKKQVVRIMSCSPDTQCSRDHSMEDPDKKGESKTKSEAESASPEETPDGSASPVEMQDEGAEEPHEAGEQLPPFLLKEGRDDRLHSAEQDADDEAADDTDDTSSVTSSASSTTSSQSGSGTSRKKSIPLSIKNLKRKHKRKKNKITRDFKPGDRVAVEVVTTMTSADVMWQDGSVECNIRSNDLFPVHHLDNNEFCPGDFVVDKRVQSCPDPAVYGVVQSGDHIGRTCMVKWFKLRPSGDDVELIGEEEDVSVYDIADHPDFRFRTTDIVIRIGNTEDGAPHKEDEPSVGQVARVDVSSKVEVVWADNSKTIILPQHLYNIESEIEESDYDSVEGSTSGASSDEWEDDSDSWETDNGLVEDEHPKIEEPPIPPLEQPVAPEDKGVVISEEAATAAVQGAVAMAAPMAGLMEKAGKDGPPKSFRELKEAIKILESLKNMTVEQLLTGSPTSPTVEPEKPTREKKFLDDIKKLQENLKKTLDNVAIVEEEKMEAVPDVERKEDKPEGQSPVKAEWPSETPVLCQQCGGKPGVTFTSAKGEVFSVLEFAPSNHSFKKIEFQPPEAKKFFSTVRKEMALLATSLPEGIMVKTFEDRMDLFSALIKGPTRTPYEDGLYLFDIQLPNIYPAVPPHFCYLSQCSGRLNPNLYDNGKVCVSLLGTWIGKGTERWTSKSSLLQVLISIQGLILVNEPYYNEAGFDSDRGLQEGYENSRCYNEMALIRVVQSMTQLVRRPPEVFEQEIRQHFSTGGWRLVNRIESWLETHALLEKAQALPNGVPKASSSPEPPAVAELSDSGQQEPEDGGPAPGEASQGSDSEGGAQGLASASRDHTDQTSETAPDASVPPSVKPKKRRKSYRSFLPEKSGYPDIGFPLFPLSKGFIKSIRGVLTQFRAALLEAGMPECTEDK", "chain of UniProt P51668 (whole entry, looked up)": "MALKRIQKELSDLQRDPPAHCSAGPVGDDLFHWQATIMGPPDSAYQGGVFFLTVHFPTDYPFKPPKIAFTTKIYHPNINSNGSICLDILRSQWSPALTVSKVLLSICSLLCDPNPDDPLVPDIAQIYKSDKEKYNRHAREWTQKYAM", "chain of UniProt P62253 (whole entry, looked up)": "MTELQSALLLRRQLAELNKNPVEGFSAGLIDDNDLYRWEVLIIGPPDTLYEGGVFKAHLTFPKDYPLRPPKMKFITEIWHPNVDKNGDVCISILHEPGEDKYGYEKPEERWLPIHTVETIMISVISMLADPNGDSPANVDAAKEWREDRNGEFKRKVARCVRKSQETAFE", "chain of UniProt Q8N2K1 (whole entry, looked up)": "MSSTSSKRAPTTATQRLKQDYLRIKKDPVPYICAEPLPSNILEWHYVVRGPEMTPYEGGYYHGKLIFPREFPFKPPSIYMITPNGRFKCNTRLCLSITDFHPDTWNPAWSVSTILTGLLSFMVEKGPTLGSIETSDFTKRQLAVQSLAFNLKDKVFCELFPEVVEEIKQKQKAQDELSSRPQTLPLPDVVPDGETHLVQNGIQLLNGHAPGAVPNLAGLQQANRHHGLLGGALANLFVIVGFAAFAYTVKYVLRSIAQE", "chain of UniProt Q7Z7E8 (whole entry, looked up)": "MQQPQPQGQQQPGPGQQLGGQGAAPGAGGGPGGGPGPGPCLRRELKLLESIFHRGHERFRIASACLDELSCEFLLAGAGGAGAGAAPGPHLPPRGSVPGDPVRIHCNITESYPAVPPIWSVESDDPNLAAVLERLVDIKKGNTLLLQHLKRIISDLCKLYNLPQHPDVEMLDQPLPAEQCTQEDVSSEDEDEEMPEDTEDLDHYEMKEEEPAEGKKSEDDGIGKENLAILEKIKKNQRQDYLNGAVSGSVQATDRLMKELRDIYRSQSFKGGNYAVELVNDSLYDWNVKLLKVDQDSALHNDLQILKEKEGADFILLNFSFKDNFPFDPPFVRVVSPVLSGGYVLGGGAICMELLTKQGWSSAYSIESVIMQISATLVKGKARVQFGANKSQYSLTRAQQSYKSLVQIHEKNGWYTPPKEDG"}
{"data": "Study 1", "target": "Interferon regulatory factor 5, full length, phosphomimetic (IRF5, Homo sapiens, UniProt Q13568-2, residues 1-514, S451D/S453D/S456D/S462D)", "technique": "protein-binding microarray", "form": "double-stranded DNA, one strand shown", "matrix": "in vitro", "concentration": "940 nM top", "setting": "60-bp whole probe", "with": "salmon DNA 0.4 mg/ml", "reference": "random background probes", "direction": "higher = stronger binding", "all sequences stand within": "GCCTAGCAC … GTCTTGATTCGCTTGACGCTGCTG"}
{"Strand": "TACGGTTTCCTTTTCCTGACGTGCTAG", "fitted relative affinity": "1.84 z-score"}
{"Strand": "TCTCTTTCCAACTCTGTTTTCGTGCTA", "fitted relative affinity": "3.31 z-score"}
{"Strand": "TCATTTTTATCAAATGTGACTGTGCTA", "fitted relative affinity": "0.0932 z-score"}
{"Strand": "TCAACCATCATCCTCACACTGTGCTAG", "fitted relative affinity": "0.825 z-score"}
{"Strand": "TTAGGTTTCCTTTTCCTTGAGTGCTAG", "fitted relative affinity": "2.36 z-score"}
{"Strand": "TCATCTATGTAGTTGATACTGTGCTAG", "fitted relative affinity": "-0.317 z-score"}
{"Strand": "GTCGAACTGAGTATCGAGACGTGCTAG", "fitted relative affinity": "2.45 z-score"}
{"Strand": "GAGGGACTGCTTCTCCTGACGTGCTAG", "fitted relative affinity": "-0.321 z-score"}
{"Strand": "GACGGTCTCCTTTTCCGGACGTGCTAG", "fitted relative affinity": "1 z-score"}
{"Strand": "TTAGGTACCCTTATCCTTTAGTGCTAG", "fitted relative affinity": "-0.126 z-score"}
{"Strand": "GACGATTGCGGGACTGGAGACGTGCTA", "fitted relative affinity": "-0.659 z-score"}
{"Strand": "TCAGGTTCCGGTTTCGGTTAGTGCTAG", "fitted relative affinity": "9.77 z-score"}
{"Strand": "TTGGCTTCCTCTTTCTCTGCGTGCTAG", "fitted relative affinity": "0.737 z-score"}
{"Strand": "GAGTCTTCCCTTTTAAGTTCGTGCTAG", "fitted relative affinity": "0.796 z-score"}
{"Strand": "GACGTTTTCGGTTCCGGGACGTGCTAG", "fitted relative affinity": "3.72 z-score"}
{"Strand": "GAAGGACTGCTTCTCCTGACGTGCTAG", "fitted relative affinity": "-0.341 z-score"}
{"Strand": "GACTGTTTCCTACTGCTGACGTGCTAG", "fitted relative affinity": "0.613 z-score"}
{"Strand": "GACGGTTTCGGCTCCGGGACGTGCTAG", "fitted relative affinity": "8.76 z-score"}
{"Strand": "TTAGGTATCGGACTGGGTTGGTGCTAG", "fitted relative affinity": "3.57 z-score"}
{"Strand": "TCATAAATCTTTGTTGGAACTGTGCTA", "fitted relative affinity": "0.189 z-score"}
{"data": "Study 2", "Sequence": "QLRRLQEERTCKVCLDRAVSIVFVPCGHLVCAECAPGLQLCPICRAPVRSRVRTF (BIRC7 RING domain (UniProt Q96CA5))", "technique": "yeast two-hybrid", "matrix": "yeast", "setting": "mostly zero background", "reference": "not given", "direction": "higher = stronger interaction"}
{"target": "UBE2J2 UBC core domain (UniProt Q8N2K1)", "lacZ reporter activity": 0}
{"target": "BIRC6 UBC core domain (UniProt Q9NR09)", "lacZ reporter activity": 0}
{"target": "UBE2I UBC core domain (UniProt P63279)", "lacZ reporter activity": 0}
{"target": "UBE2G1 UBC core domain (UniProt P62253)", "lacZ reporter activity": 0}
{"target": "UBE2T UBC core domain (UniProt Q9NPD8)", "lacZ reporter activity": 0}
{"target": "UBE2Z UBC core domain (UniProt Q9H832)", "lacZ reporter activity": 0}
{"target": "UBE2Q1 UBC core domain (UniProt Q7Z7E8)", "lacZ reporter activity": 0}
{"target": "UBE2O UBC core domain (UniProt Q9C0C9)", "lacZ reporter activity": 0}
{"target": "UBE2D1 UBC core domain (UniProt P51668)", "lacZ reporter activity": 0}
{"target": "UBE2M UBC core domain (UniProt P61081)", "lacZ reporter activity": 0}
{"target": "UBE2R2 UBC core domain (UniProt Q712K3)", "lacZ reporter activity": 0}
{"target": "UBE2J1 UBC core domain (UniProt Q9Y385)", "lacZ reporter activity": 0}
{"target": "UBE2B UBC core domain (UniProt P63146)", "lacZ reporter activity": 0}
{"target": "UBE2L3 UBC core domain (UniProt P68036)", "lacZ reporter activity": 0}
{"target": "UBE2E3 UBC core domain (UniProt Q969T4)", "lacZ reporter activity": 0}
{"data": "Study 3", "target": "Prothrombin, mature alpha-thrombin (F2, Homo sapiens, UniProt P00734)", "technique": "aptamer microarray, sandwich", "form": "DNA with 2'F-ANA", "matrix": "in vitro", "concentration": "200 nM", "setting": "whole 15-mer aptamer, many near background", "with": "Cy3 exosite-II aptamer, 400 nM", "direction": "higher = stronger binding", "strand": "GGTTGGTGTGGTTGG"}
{"Modification": "2'F-ANA at 1 5 7 9 11 12", "mean fluorescence intensity [a.u.]": 156}
{"Modification": "2'F-ANA at 1 3 5 6 8 9 10 14 15", "mean fluorescence intensity [a.u.]": 46.5}
{"Modification": "2'F-ANA at 1 2 5 7 8 9 10 11 12 13 15", "mean fluorescence intensity [a.u.]": 56.1}
{"Modification": "2'F-ANA at 2 3 5 6 7 9 10 14", "mean fluorescence intensity [a.u.]": 48.9}
{"Modification": "2'F-ANA at 1 3 7 8 10 12 15", "mean fluorescence intensity [a.u.]": 123}
{"Modification": "2'F-ANA at 1 2 5 6 7 8 9 14 15", "mean fluorescence intensity [a.u.]": 68.3}
{"Modification": "2'F-ANA at 1 2 5 9 10 13 14", "mean fluorescence intensity [a.u.]": 52.8}
{"Modification": "2'F-ANA at 3 5 7 12", "mean fluorescence intensity [a.u.]": 298}
{"Modification": "2'F-ANA at 2 3 4 5 12 15", "mean fluorescence intensity [a.u.]": 183}
{"Modification": "2'F-ANA at 2 3 6 8 9 10 15", "mean fluorescence intensity [a.u.]": 343}
{"Modification": "2'F-ANA at 2 5 7 8 15", "mean fluorescence intensity [a.u.]": 77.8}
{"Modification": "2'F-ANA at 2 3 7 10", "mean fluorescence intensity [a.u.]": 485}
{"Modification": "2'F-ANA at 1 4 9 11 13", "mean fluorescence intensity [a.u.]": 76.1}
{"Modification": "2'F-ANA at 1 2 3 4 5 11 12 13 15", "mean fluorescence intensity [a.u.]": 74.4}
{"Modification": "2'F-ANA at 5 12 15", "mean fluorescence intensity [a.u.]": 193}
{"Modification": "2'F-ANA at 7 9 11 13 14", "mean fluorescence intensity [a.u.]": 181}
{"Modification": "2'F-ANA at 2 3 5 7 9 10 13 14", "mean fluorescence intensity [a.u.]": 49.5}
{"Modification": "2'F-ANA at 1 3 4 5 7 11 13 15", "mean fluorescence intensity [a.u.]": 48.3}
{"Modification": "2'F-ANA at 2 3 4 6 13 14 15", "mean fluorescence intensity [a.u.]": 220}
{"Modification": "2'F-ANA at 2 3 7 8 9 12", "mean fluorescence intensity [a.u.]": 1270}
{"Modification": "2'F-ANA at 1 2 4 5 12 14 15", "mean fluorescence intensity [a.u.]": 48.3}
{"Modification": "2'F-ANA at 1 5 6 7 9 10 11 12 14 15", "mean fluorescence intensity [a.u.]": 49.8}
{"Modification": "2'F-ANA at 4 6 7 9 10 13 14", "mean fluorescence intensity [a.u.]": 56.3}
{"data": "Study 4", "target": "Histone acetyltransferase KAT6A, winged helix 1, GST fusion (KAT6A, Homo sapiens, UniProt Q92794, residues 1-85)", "technique": "protein binding microarray", "form": "double-stranded DNA, one strand shown", "matrix": "in vitro", "concentration": "not given", "setting": "8-mer, flanks averaged, mean of 2 arrays, mostly near background", "reference": "not given", "direction": "higher = stronger binding", "Construct (chain)": "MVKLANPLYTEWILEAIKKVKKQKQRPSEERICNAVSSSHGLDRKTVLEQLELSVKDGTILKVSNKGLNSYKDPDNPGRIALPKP"}
{"Strand": "CGTTAGTC", "E-score": -0.0214}
{"Strand": "GCTATACC", "E-score": 0.136}
{"Strand": "TGTTCAAA", "E-score": -0.259}
{"Strand": "GAGTAATA", "E-score": 0.0145}
{"Strand": "AAGTTATT", "E-score": -0.134}
{"Strand": "ATCGTGAA", "E-score": -0.197}
{"Strand": "AAGACGTA", "E-score": -0.196}
{"Strand": "AGGGCACA", "E-score": -0.228}
{"Strand": "AAAGGCCA", "E-score": -0.0837}
{"Strand": "ACAAAGAC", "E-score": -0.181}
{"Strand": "CCATCGAG", "E-score": -0.136}
{"Strand": "GCAAACAC", "E-score": 0.0687}
{"Strand": "AATTTACA", "E-score": -0.24}
{"Strand": "ATAGCCCA", "E-score": -0.27}
{"Strand": "AGCTAGAA", "E-score": -0.227}
{"Strand": "CTAGCTGA", "E-score": -0.215}
{"Strand": "AACATTTC", "E-score": -0.177}
{"Strand": "AGAGATGG", "E-score": -0.232}
{"Strand": "CTACCACC", "E-score": -0.0612}
{"Strand": "GGCCTACC", "E-score": 0.0896}
{"Strand": "CTGACTGC", "E-score": -0.0288}
{"Strand": "CACTGCGG", "E-score": 0.0806}
{"Strand": "CGTAACTC", "E-score": 0.0829}
{"Strand": "GAGACGCC", "E-score": 0.215}
{"Strand": "GCCACATA", "E-score": 0.0236}
{"data": "Study 5", "target": "CCND3, cyclin fold, Cln2 fusion (human)", "technique": "yeast growth competition, sequencing", "matrix": "yeast", "setting": "weak parent motif", "reference": "not given", "direction": "higher = stronger binding", "starting sequence": "E2F1 docking peptide (human); PPVKRRLDFETDH"}
{"Change": "R5Q", "normalised enrichment score": 0.0151}
{"Change": "T11K", "normalised enrichment score": 0.265}
{"Change": "K4C", "normalised enrichment score": 1.65}
{"Change": "P2D", "normalised enrichment score": 0.107}
{"Change": "L7S", "normalised enrichment score": -0.207}
{"Change": "V3H", "normalised enrichment score": -0.00981}
{"Change": "F9T", "normalised enrichment score": 0.133}
{"Change": "D8K", "normalised enrichment score": -0.0236}
{"Change": "L7N", "normalised enrichment score": 0.312}
{"Change": "D8Q", "normalised enrichment score": -0.0665}
{"Change": "T11A", "normalised enrichment score": 0.0893}
{"Change": "R6S", "normalised enrichment score": 0.635}
{"Change": "V3Q", "normalised enrichment score": -0.0134}
{"Change": "T11E", "normalised enrichment score": 0.691}
{"Change": "D8A", "normalised enrichment score": 0.17}
{"Change": "V3P", "normalised enrichment score": 0.308}
{"Change": "T11M", "normalised enrichment score": 0.584}
{"Change": "E10T", "normalised enrichment score": 0.0345}
{"Change": "P2K", "normalised enrichment score": 0.421}
{"Change": "R6C", "normalised enrichment score": 0.404}
{"Change": "D8S", "normalised enrichment score": 0.479}
{"Change": "D12Q", "normalised enrichment score": 0.0835}
{"Change": "V3Y", "normalised enrichment score": 0.22}
{"Change": "K4D", "normalised enrichment score": 0.0476}
{"Change": "E10C", "normalised enrichment score": 0.465}
{"data": "Study 6", "target": "ABI1, truncated, D143A, DHFR fusion (Arabidopsis thaliana)", "technique": "DHFR PCA, deep sequencing", "matrix": "yeast", "setting": "methotrexate growth selection, single substitutions", "with": "(+)-ABA 4.8 µM", "reference": "wild-type fitted maximum", "direction": "higher = stronger binding", "starting sequence": "PYL1, truncated, DHFR fusion (Arabidopsis thaliana); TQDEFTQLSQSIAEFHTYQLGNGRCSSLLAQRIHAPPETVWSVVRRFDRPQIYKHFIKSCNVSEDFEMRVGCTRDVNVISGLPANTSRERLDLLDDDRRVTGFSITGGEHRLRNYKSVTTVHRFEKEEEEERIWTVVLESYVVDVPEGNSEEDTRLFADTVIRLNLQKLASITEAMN"}
{"Change": "F157C", "relative binding score [%]": -4.38}
{"Change": "G21C", "relative binding score [%]": 64.8}
{"Change": "P50H", "relative binding score [%]": 16.9}
{"Change": "V70E", "relative binding score [%]": 49.5}
{"Change": "P36A", "relative binding score [%]": 59.8}
{"Change": "R74C", "relative binding score [%]": -17.1}
{"Change": "V161L", "relative binding score [%]": 47.6}
{"Change": "H110Q", "relative binding score [%]": 13.6}
{"Change": "H16M", "relative binding score [%]": -6.25}
{"Change": "W134R", "relative binding score [%]": 42.8}
{"Change": "G148E", "relative binding score [%]": 40}
{"Change": "V43Y", "relative binding score [%]": 43.4}
{"Change": "P37W", "relative binding score [%]": 7.51}
{"Change": "G107N", "relative binding score [%]": 19.3}
{"Change": "V137D", "relative binding score [%]": 7.43}
{"Change": "E4V", "relative binding score [%]": 77}
